Assay results pooled from the literature.
Compare with care: the assays were run in different laboratories. ± gives the spread as reported.

With `N=C(N)NCCC[C@H](NCC(=O)[C@@H](O)[C@H](O)[C@H](O)CO)C(=O)O` the AUC(0-t) was 81 µM·h (C57BL/6J mouse, plasma; intraperitoneal, 40 mM, 2.5 µL/g).
With `CCCC[C@H](NC(C)=O)C(=O)N[C@H]1CCC(=O)NC[C@@H](C(=O)N[C@@H](Cc2c[nH]c3ccccc23)C(N)=O)NC(=O)[C@H](CCCNC(=N)N)NC(=O)[C@@H](Cc2ccccc2)NC(=O)[C@H](Cc2c[nH]cn2)NC1=O` the AUC(0-t) was 4920 ng·h/mL (CD Sprague-Dawley rat, female, plasma; subcutaneous, 25.0 mg/kg/day, day 1).
With `COc1cccc(CN)c1O` the AUC(0-t) was 361000 ± 42000 ng·h/mL (C57BL/6N mouse, male, plasma; intraperitoneal, 200 mg/kg).
For `Nc1ccn([C@@H]2O[C@H](CO)[C@@H](O)C2(F)F)c(=O)n1`, the AUC(0-t) was 10900 ± 2550 ng·h/mL (BALB/c mouse, female, plasma; intravenous, 4 mg/kg).
`CSc1cc(C)nc(SC)c1NC(=O)CN1CCN(CCSc2nc3ccccc3[nH]2)CC1.Cl` gave an AUC(0-t) of 49.8 ± 6.58 ng·h/mL (CD-1 mouse, female, plasma; intranasal, 32.4 µg/10 µL, 7 days repeated).
`C#Cc1cccc(Nc2ncnc3cc(OCCOC)c(OCCOC)cc23)c1` gave an AUC(0-t) of 27000 ± 2570 ng·h/mL (NOD/SCID mouse, male, whole blood or plasma; oral, 12.5 mg/kg every 12 h, 12 h, day 1).
For `CNc1nc(Nc2ccc(-n3cnc(C)n3)c(OC)c2)nc2c1CC[C@H]2c1ccc(F)cc1`, the AUC(0-t) was 4590 ng·h/mL (human, plasma; oral, 100 mg, single dose, healthy volunteers).
`CNCc1ccc(-c2[nH]c3cc(F)cc4c3c2CCNC4=O)cc1` gave an AUC(0-t) of 8810 ng·h/mL (human patients, plasma; oral, 480 mg twice daily, day 1, 12 h, arithmetic mean).
The AUC(0-t) of `CCCCC1(CCCC)CN(c2ccccc2)c2cc(SC)c(OCC(=O)N[C@@H](C(=O)NCC(=O)O)c3ccccc3)cc2S(=O)(=O)C1` is reported as 2.94 ng·h/mL (human, plasma; oral, 20 mg, before breakfast).
The AUC(0-t) of `C#C[C@]1(CO)O[C@@H](n2cnc3c(N)nc(F)nc32)C[C@@H]1O` is reported as 24.1 µM·h (human, plasma; oral, 200 mg, single dose, fasted).

Some of these lines once more:
With `CCCC[C@H](NC(C)=O)C(=O)N[C@H]1CCC(=O)NC[C@@H](C(=O)N[C@@H](Cc2c[nH]c3ccccc23)C(N)=O)NC(=O)[C@H](CCCNC(=N)N)NC(=O)[C@@H](Cc2ccccc2)NC(=O)[C@H](Cc2c[nH]cn2)NC1=O` the AUC(0-t) was 4920 ng·h/mL (CD Sprague-Dawley rat, female, plasma; subcutaneous, 25.0 mg/kg/day, day 1).
